Results from different studies.
A part holds a random share of what one study measured.

Study 1
Target: Prothrombin, mature alpha-thrombin (F2, Homo sapiens, UniProt P00734)
Technique: aptamer microarray, sandwich
Form: DNA with 2'F-ANA
Matrix: in vitro
Concentration: 200 nM
Setting: whole 15-mer aptamer, many near background
Added: Cy3 exosite-II aptamer, 400 nM
Direction: higher = stronger binding
Endpoint: mean fluorescence intensity
Strand: GGTTGGTGTGGTTGG
2'F-ANA at 2 4 5 7 9 11 12 15: 96.6 a.u.
2'F-ANA at 1 4 7 9 10 12 13: 53.6 a.u.
2'F-ANA at 1 2 3 5 6 7 8 9 10 12 13 14 15: 52.3 a.u.
2'F-ANA at 5 7 8 9 10 12: 74.7 a.u.
2'F-ANA at 2 4 5 6 7 11 12 15: 89.8 a.u.
2'F-ANA at 4 5 7 9 11 12 14 15: 59.5 a.u.
2'F-ANA at 4 6 9 11 12 14 15: 79 a.u.
2'F-ANA at 1 2 4 5 6 8 9 10 14 15: 67 a.u.
2'F-ANA at 1 3 4 5 6 7 11 12 13 14 15: 46.5 a.u.
2'F-ANA at 1 2 5 6 7 8 12 14 15: 55.4 a.u.
2'F-ANA at 4 8 9 11 13 14 15: 74.4 a.u.
2'F-ANA at 1 4 5 7 8 12 13 14: 47.6 a.u.
2'F-ANA at 1 2 3 5 6 7 10 13 14 15: 50 a.u.
2'F-ANA at 1 3 7 9 10 12 13 15: 105 a.u.

Study 2
Target: Ras GTPase-activating protein-binding protein 1, full length (G3BP1, Homo sapiens, UniProt Q13283)
Chain of UniProt Q13283 (whole entry, looked up): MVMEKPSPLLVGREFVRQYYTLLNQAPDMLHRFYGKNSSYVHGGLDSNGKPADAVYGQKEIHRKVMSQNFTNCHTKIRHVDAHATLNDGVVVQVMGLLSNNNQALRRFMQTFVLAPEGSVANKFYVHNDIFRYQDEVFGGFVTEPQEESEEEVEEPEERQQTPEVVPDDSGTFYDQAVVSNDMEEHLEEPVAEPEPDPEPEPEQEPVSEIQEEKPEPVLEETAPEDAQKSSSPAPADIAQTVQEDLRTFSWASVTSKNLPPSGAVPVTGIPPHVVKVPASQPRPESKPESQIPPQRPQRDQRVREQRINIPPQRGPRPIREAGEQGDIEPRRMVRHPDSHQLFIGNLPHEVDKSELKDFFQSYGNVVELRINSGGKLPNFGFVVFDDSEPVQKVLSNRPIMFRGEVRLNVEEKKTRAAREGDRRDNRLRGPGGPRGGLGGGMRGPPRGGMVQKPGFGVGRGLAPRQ
Technique: RNA Bind-n-Seq
Form: RNA
Matrix: in vitro
Concentration: 200 nM
Setting: whole 134-nt RNA, ends assumed
Added: 150 mM KCl
Baseline: input library
Direction: higher = stronger binding
Endpoint: log2 enrichment
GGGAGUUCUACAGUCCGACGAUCGCAGGAAGUAAAAACAAAUGGAAAUGCUUCGGAUAAAAGCAGGGGUGGGGGUUGCUAAGGAAAGGGUGGGAUGGGAGUGGGUAAAGAGUUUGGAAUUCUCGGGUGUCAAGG: 1.02
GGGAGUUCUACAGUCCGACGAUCAAGUCCUGUGCUACACAUCGUAUGUACCGAAUCGGGAAAAAAAGGGUGGGAAAGGGAAAGUAUUAUGUUACGCCGUUCGGAUCUGCACUUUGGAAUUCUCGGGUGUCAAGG: 0.164
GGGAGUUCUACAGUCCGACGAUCCCUGUGCUACACAUCGUAUGUACCGAAUCGGGCCCCCCGGGGCCCCCCGGGGCCCCCCGGGAAAGUAUUAUGUUACGCCGUUCGGAUCUGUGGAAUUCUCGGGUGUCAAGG: -0.55
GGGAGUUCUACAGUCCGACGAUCACAAAGCAGGUGGGCAUCUUUGGGAAGUGGGGCAAGGGGGGGAUAGGGAGGGGGGUAACACUUUGGGAACAGGUGGUCCCAGGUCGUUUCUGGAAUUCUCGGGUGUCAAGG: 1.51
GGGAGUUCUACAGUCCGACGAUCGCAGGAAGUAAAAACAAAUGGAAAUGCUACGGAUAGUGGCAGGGGUGGGGGUUGCUAAGGAAAGGGUGGGAUGGGAGUGGGUAAAGAGUUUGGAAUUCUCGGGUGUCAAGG: 1.64
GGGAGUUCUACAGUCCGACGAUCACCAUGCAGGUGGGCAUAUUUGGGAAGUGGGGCAAGGGGGGGAUAGGGAGGGGGGUAACACUUUGGGAACAGGUGGUCCCAGGUCGUUUCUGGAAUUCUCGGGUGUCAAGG: 1.36
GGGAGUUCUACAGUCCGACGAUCGUCCUGUGCUACACAUCGUAUGUACCGAAUCGGGGAAAGGGGUUUGGGGUUUUUGGGGAAAGUAUUAUGUUACGCCGUUCGGAUCUGCACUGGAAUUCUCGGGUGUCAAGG: 0.648
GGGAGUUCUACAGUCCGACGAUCUUCCCAAGAUGGCGGCGGACGUGUCCGUUACUCACCGGCCCCCGCUGAGCCCUAAGUCUGGGGCCGAAGUCGAAGCCGGCGAUGCCGCGGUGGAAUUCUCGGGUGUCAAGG: -2.4
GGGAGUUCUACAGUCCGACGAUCUGGCCCUGGUGGCAUGCGGGGAGGAAGAGGAGGCCUCAUGGAUCGUGGUGGUCCCGGUGGAAUGUUCAGAGGUGGCCGUGGUGGAGACAGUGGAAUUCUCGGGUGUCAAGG: 0.406
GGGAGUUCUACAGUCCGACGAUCAGUCCUGUGCUACACAUCGUAUGUACCGAAUCGGGGAAAGGGGAAAAAGGGGUGGGGAAAGUAUUAUGUUACGCCGUUCGGAUCUGCACUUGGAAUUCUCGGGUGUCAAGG: 0.445

Study 3
Target: RNA binding protein fox-1 homolog 2, RRM domain, GST-SBP tag (RBFOX2, Homo sapiens, UniProt O43251-10, residues 100-194)
Technique: RNA Bind-n-Seq
Form: RNA
Matrix: in vitro
Concentration: 365 nM
Setting: natural RNA segment, single round, ends assumed
Baseline: no-protein control
Direction: higher = stronger binding
Endpoint: RBNS enrichment (R)
Residues (chain): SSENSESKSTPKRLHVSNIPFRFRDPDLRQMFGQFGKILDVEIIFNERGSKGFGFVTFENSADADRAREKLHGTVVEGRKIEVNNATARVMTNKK
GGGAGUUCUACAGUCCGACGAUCCCACAGGUCUUGAUGUGACUUUUGCAUUGAAAAUCCAAACCAAAGGAGCUCUUCAAGAAAAGCAGAGUUCUUCUCGUUCUUGUUCAAUCCUAAAAGCAGAUGUUUUGCCAUGGAAUUCUCGGGUGCCAA: 0.334
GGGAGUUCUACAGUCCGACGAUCUAGAAAAUAAAAUAAAGCUUUGUAGUAUACUUGUACUUAGUUUGGGGAAAAAUGAAAUUAUAAUGCAUUUGUAUUUCCAUUUCUUGCAAAUAAAUAUUUUUCUUAGUCAAUGGAAUUCUCGGGUGCCAA: 0.618
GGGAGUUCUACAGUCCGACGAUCCAAUUCUGUGAAGAAAGUCAUUGGUAGCUUGAUGGGGAUGGCAUUGAAUCUGUAAAUUACCUUGGGCAGUAUGGCCAUUUUCACAAUAUUGAUUCUUCCUACCCAAGAGCUGGAAUUCUCGGGUGCCAA: 0.583
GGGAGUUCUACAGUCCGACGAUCAUGACAACUUCUAAUUGCCAUGUACAGUAUGUUCAAAGUCAAAUAACUCCUCAUUGUAAACAAACUGUGUAACUGCCCAAAGCAGCACUUAUAAAUCAGCCUAACAUAAGUGGAAUUCUCGGGUGCCAA: 0.698
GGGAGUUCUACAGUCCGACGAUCGACCUGGACACUGGGCCUCAGCCCCUGGCCGUGUGGAAUCCAUGGGAUCCUCGGGACUCCCCAGACAGGCGUGUGUGAGUGUGUUCUGUCAUGCAGCCUCAGCCCAGGCUUGGAAUUCUCGGGUGCCAA: 0.38
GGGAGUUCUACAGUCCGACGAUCCUUCUGCCCUAACUAUUGUGUAGCCUCUUAUGCUGAAAUCGGCUUCUGCUGGCUUCUCCGGCUUUCAGAGCCCUGAAACAAAGAGAAACAGGAUCUGUCCCUACCCAGCAUGGAAUUCUCGGGUGCCAA: 0.632
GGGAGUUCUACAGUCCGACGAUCUCUAGGCCAGUGCUUUACCACUUAGCUAUACCCAGUCCUGUGUUACCUUGCUUUUGUGAACACGUCACUGCAUAGGUUCUGAGAGGACCUGGCUGGGUUUAUUUAAGAGUUGGAAUUCUCGGGUGCCAA: 0.323
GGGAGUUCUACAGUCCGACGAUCAAUUAUCAGGGAUUUUAUGUAUUGUACAUAGAUGACAAUAGGAAAUUGUUUAUUUCAAGAAAUAGCUUUGUUACAGUAAAAUAUUUGUCAUUUAAAACCCAGCUGUUUAGUGGAAUUCUCGGGUGCCAA: 0.463
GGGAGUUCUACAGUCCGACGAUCCGCAUUGGGUUUAAAACCAGCACCGAGGCCCAGUGGGGGAAUCACAGACAUCACCAAGUCUCGUCUUCUUUCCUUCCUGUGAGUUGAAACCAAACAGGCCUCUCGCUCACUGGAAUUCUCGGGUGCCAA: 0.333
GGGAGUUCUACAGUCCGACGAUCUCAGAAGAAGAAGGAACCCAUAGCUUGGUGUCAUUAACAUAAUUAUUUUAAGCCUUAUCCAGCAGCCAUAAUUUGAAUAACUCUACGAGACCAGAGAGACUGUAGUUCCCUGGAAUUCUCGGGUGCCAA: 0.331
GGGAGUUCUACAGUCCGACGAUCUGUUAAGACAACUCUUGUGUACGCUAUGUUGAAGCUCAACAAAAAAGUCAUGGGACCACUUCUAGAAAUCUUUCAGCUGUCAGGCCUGUCAGUCUCAUGACAGUUUGUUGUGGAAUUCUCGGGUGCCAA: 0.345

Single results of other studies
PhoQ, residues 284 288 289 292 302 303 SSYNSA
fold induction (PhoP, residues 12 14 15 18 19 IQFRS (Escherichia coli, UniProt P23836); Sort-seq, refers to: YFP reporter; E. coli; PhoQ-PhoP variant library, added: 10 µM Mg2+; baseline: high Mg2+ state, higher = stronger signaling): 4.32

For quick reference, copied from above (study 3):
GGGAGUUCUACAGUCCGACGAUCGACCUGGACACUGGGCCUCAGCCCCUGGCCGUGUGGAAUCCAUGGGAUCCUCGGGACUCCCCAGACAGGCGUGUGUGAGUGUGUUCUGUCAUGCAGCCUCAGCCCAGGCUUGGAAUUCUCGGGUGCCAA: 0.38
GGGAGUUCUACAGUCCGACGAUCUGUUAAGACAACUCUUGUGUACGCUAUGUUGAAGCUCAACAAAAAAGUCAUGGGACCACUUCUAGAAAUCUUUCAGCUGUCAGGCCUGUCAGUCUCAUGACAGUUUGUUGUGGAAUUCUCGGGUGCCAA: 0.345
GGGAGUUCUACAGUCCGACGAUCCCACAGGUCUUGAUGUGACUUUUGCAUUGAAAAUCCAAACCAAAGGAGCUCUUCAAGAAAAGCAGAGUUCUUCUCGUUCUUGUUCAAUCCUAAAAGCAGAUGUUUUGCCAUGGAAUUCUCGGGUGCCAA: 0.334
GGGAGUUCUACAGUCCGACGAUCCGCAUUGGGUUUAAAACCAGCACCGAGGCCCAGUGGGGGAAUCACAGACAUCACCAAGUCUCGUCUUCUUUCCUUCCUGUGAGUUGAAACCAAACAGGCCUCUCGCUCACUGGAAUUCUCGGGUGCCAA: 0.333
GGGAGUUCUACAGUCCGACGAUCCAAUUCUGUGAAGAAAGUCAUUGGUAGCUUGAUGGGGAUGGCAUUGAAUCUGUAAAUUACCUUGGGCAGUAUGGCCAUUUUCACAAUAUUGAUUCUUCCUACCCAAGAGCUGGAAUUCUCGGGUGCCAA: 0.583
